# Measurements pooled from the literature.
# Numbered parts are unrelated; each lists some results of a single study.

# Sample 1
# Target: Sal-like protein 4, full length isoform B (SALL4, Homo sapiens, UniProt Q9UJQ4-2, residues 1-616)
# Technique: universal PBM
# Molecule type: double-stranded DNA, one strand shown
# Matrix: in vitro
# Concentration: not given
# Notes: 8-mer, flanks averaged, mean of replicates
# Direction: higher = stronger binding
# Target sequence (chain): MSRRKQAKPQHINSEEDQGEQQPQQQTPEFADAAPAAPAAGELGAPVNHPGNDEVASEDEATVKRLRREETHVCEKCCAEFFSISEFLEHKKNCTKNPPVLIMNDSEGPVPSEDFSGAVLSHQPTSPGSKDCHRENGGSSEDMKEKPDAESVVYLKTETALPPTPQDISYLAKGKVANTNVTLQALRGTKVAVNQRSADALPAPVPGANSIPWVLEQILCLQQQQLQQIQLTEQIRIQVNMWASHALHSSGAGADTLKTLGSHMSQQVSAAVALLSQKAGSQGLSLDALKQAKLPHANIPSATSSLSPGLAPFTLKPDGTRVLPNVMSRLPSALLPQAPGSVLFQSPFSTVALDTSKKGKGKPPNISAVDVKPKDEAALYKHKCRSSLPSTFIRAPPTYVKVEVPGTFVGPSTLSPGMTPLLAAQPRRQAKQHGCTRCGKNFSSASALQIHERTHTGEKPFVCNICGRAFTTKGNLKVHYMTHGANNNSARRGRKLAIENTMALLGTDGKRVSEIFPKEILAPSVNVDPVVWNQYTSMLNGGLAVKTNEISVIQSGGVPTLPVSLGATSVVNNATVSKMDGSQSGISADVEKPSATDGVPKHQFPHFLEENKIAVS
Oligonucleotide,E-score
ATGCGATA,0.195
CGAAGACG,-0.198
CATCCCGG,-0.26
ATTTAGAG,0.112
AGGTGATA,0.0516
CCGACAGG,-0.136
GGTGGTAA,0.0487
AGCTCGAC,-0.219
CAGCCTCC,-0.308
CCGATGCG,-0.294
AATCGAGA,0.131
AGCTTTAA,0.121
CCAGGCAA,-0.173
CCACGAGA,-0.337
GGTAGTCA,-0.133
AAGGCGGC,-0.171
CAGTAGGA,-0.116
CCTTAAGG,-0.0715
ATGTTGAC,0.14
CACGTTGC,-0.176
AACGCGCG,-0.0696
CAAGAGGC,-0.134
CCGCTCTC,-0.253
AAGCCACA,0.0551

# Sample 2
# Target: Histone acetyltransferase KAT6A, winged helix 1, GST fusion (KAT6A, Homo sapiens, UniProt Q92794, residues 1-85)
# Technique: protein binding microarray
# Molecule type: double-stranded DNA, one strand shown
# Matrix: in vitro
# Concentration: not given
# Notes: 8-mer, flanks averaged, mean of 2 arrays, mostly near background
# Relative to: not given
# Direction: higher = stronger binding
# Target sequence (chain): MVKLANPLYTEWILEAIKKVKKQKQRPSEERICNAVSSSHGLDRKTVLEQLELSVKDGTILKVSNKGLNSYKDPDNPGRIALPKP
Oligonucleotide,E-score
AAAAGGAA,-0.232
GCAGAAAA,-0.0932
ATTGAAAG,-0.165
CGGAACCA,0.0396
AGCGTGAG,0.0892
ACGGCGCG,0.441
TAGACAAA,-0.169
CAATGAAC,-0.192
AATCGTCA,-0.206
AGGAGAAG,-0.268
CTTCTGAC,-0.0888
CGACCGTC,0.201
ACGCGTTA,0.3
GTAGTTTA,-0.0318
CTCCGGCC,0.246
AAACTTCG,-0.128

# Sample 3
# Target: Centromere-binding protein 1, full length, N-terminal tag (CBF1, Saccharomyces cerevisiae, UniProt P17106, residues 1-351)
# UniProt P17106, sequence (whole entry, looked up): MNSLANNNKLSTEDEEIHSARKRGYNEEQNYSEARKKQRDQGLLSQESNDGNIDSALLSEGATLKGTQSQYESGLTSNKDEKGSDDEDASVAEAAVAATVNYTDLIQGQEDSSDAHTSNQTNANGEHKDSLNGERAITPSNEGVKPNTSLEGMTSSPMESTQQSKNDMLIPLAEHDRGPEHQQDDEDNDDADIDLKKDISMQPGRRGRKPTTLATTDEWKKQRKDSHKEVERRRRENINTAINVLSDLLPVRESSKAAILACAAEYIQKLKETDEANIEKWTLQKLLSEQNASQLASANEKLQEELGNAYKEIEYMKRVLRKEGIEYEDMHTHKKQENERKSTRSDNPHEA
# Technique: protein-binding microarray
# Molecule type: double-stranded DNA, one strand shown
# Matrix: in vitro
# Concentration: 0.8 µM
# Notes: whole 60-bp probe, no competitor
# Direction: higher = stronger binding
Oligonucleotide,fluorescence intensity [a.u.]
CCTAACTACTATAACCACGTGAAATAGCTTCGTACAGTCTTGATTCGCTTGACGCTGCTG,2810
GAATCTATTCAGTCGCACGCGTTAACTCTTTGCTAGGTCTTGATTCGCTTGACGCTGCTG,573
CTATATATTACTCATCAGTTGTGTGTGAAAAATTTCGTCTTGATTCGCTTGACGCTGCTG,573
CTATAATACAAACCTCATGTGCATATATACATATTCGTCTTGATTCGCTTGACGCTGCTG,534
CTACATACATGCACGCACATACATGCACGCGCATTCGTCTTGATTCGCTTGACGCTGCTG,674
GAAGCACCCGCACGTGACTACACCGGGTAACGATAGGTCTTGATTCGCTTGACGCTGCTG,18100
CTAAGCTTTTCTATTCATGTGATACATCGCCTTTTCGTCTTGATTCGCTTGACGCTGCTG,1070
GAATTATGAACGTTCAGGGTGACGTATTGTCATTAGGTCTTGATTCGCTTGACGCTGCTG,492
GAACTCCAGAGTCACCACGACTGCGACTAGTATTAGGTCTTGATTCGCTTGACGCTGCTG,511
GAAATTATACACTTTCACCTGTTGCTGAGTGTGTAGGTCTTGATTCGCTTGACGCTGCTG,549
GAACACATAGGTAATAAGGTGACAAGTAGCAAGTAGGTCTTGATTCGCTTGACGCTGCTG,532
CTAGAGTGACATGATATGGTGATGGTGATGAGATTCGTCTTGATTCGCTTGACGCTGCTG,539
CTAATAAAGAAGAGAAACGTCACCTAAAAAGTTTTCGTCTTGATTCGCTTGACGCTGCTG,480
CTAGAAATTACTCATCAGGCAATAACCTATGCTTTCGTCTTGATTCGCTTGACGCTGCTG,506
CTAATTGTCACTTTTCATCACGTGTGTATTTAATTCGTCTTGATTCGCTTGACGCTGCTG,9320
CTAAATAACCTCAGTCACCTTGTGCAAGAACTTTTCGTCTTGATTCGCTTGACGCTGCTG,531
CTAAATCTTGTGGTTGTGGTGGTGCGTGTGAGCTTCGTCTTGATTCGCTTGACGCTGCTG,563
CTAAATTGTTAAGACATCGTGCGCCTAGCCTACTTCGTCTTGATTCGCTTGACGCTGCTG,524
CTAAGTCGCAGTCGTGGTGACTCTGGAGGGCGTTTCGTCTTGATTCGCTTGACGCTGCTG,510
GAAGTATATAGTCATAAGGTGACACAGCGTGGGTAGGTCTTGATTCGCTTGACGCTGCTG,569
GAAACGTCGAAGCTAAACGTGAGAATTCCCCTGTAGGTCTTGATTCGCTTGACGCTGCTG,509
CTACGCCAGATTCATCTCCTGTTGGAGTGTTGATTCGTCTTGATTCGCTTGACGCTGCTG,493
CTATGCTAAACTGGTCACGCCGTTATAGACAGCTTCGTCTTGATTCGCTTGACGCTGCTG,1420
CTATCCTTAAGAGCACACGTTTTAATTAGCAACTTCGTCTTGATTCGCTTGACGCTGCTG,650
CTACTTCTGGATTCTCACGGGATTATCTCGCGTTTCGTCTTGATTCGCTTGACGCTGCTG,656

# Sample 4
# Target: TAR DNA-binding protein 43, full length, His tag (TARDBP, Homo sapiens, UniProt Q13148, residues 1-414)
# Technique: RNA Bind-n-Seq
# Molecule type: RNA
# Matrix: in vitro
# Concentration: 20 nM
# Notes: 6-mer, flanks averaged, single round
# Added: 150 mM LiCl
# Relative to: input library
# Direction: higher = stronger binding
Oligonucleotide,6-mer enrichment (R)
GUUGCA,1.02
CAACAU,0.842
UGUGCG,1.49
CGUGUG,1.56
CCUUAA,0.93
CGCACC,0.95
GCAAAU,0.908
AGCACU,0.83
CGUCUU,0.941
UUAAGA,0.886
AUUAUU,1.09
GCUUCA,0.872
GAGUGU,1.6
UAAACC,0.854
CCGCGU,0.973
GGGGGG,1.8
CUCUGG,0.882
CACACG,0.834
CUAGUC,0.835
AUCCCA,0.875
CGACGG,0.879

# Sample 5
# Target: RNA binding protein fox-1 homolog 2, RRM domain, GST-SBP tag (RBFOX2, Homo sapiens, UniProt O43251-10, residues 100-194)
# Technique: RNA Bind-n-Seq
# Molecule type: RNA
# Matrix: in vitro
# Concentration: 365 nM
# Notes: natural RNA segment, single round, ends assumed
# Relative to: no-protein control
# Direction: higher = stronger binding
# Target sequence (chain): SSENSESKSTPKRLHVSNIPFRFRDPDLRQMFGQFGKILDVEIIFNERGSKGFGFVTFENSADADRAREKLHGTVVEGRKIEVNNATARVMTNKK
Oligonucleotide,RBNS enrichment (R)
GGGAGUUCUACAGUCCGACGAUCGAAGGACCGGCUUUAUCUCAUGAUGCCUUUCUGAGACUUGACCGUUAUGAGCUGAACAUAAAAAGUUUUGGCUGGCUUAUGUGAUUGAGGCCAUUAACACUGAUAAGUAUUGGAAUUCUCGGGUGCCAA,0.498
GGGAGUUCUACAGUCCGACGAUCUCCAUAAUUGUCUUUGGGGGAUUCCACCACACCCAAUGCUCUGGAGCCACAAGGAGUGUCCCUUCUUCCCCAGCAGAGCCGUGGGAGGGUCCUUGUCUGCUCUCCUUUGAUGGAAUUCUCGGGUGCCAA,0.482
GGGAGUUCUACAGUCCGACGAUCAAAUUUGAGUCAGAAUGUUUGGAGAAAUGUUGUUUUUUUUUUUUUCAGAGACUACUUUGUCACUCACUGACCAUGUCUGGUUCCUUCUCUGAACUUCAUUCUCCCCAUAAUGGAAUUCUCGGGUGCCAA,0.828
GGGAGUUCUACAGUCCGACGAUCCCCCCCAAAGACAGUGCAAGUAAUGACCGUUUGGAUCUCAUUCGUCGAUCUUUGAUAGUAUGUUCUGGAGUCUACUCCCCAGGAGCCAGGACAGGCGUGAAGAUGGAGUCUGGAAUUCUCGGGUGCCAA,1.19
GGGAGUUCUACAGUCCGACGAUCAAUAUUCUGUAACUCAGCCAGGCAAGGUAGCUCAUGCCUGUGAUCCCAGCAUUUGGGAAACAGAGGCAAGAGGAUUGCUGCAAGUUUAAGGCCAGCCUGUCUACAUAGGGUGGAAUUCUCGGGUGCCAA,0.81
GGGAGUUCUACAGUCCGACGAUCCUUUUCCUAGUUGUCCUGGUGCUAAAAUGGAAGCUACACCUUGAUCUCUCCUGGCAUGAAAAUAAAGGAUUUUGUUGUUCCACUGCCCACUUCCCCCAUGUUGUCUUUCCUGGAAUUCUCGGGUGCCAA,1.58
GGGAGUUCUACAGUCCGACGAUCUCAAUUAAGCGUGAUUCUAUCUUAGAAGAAAUAAACUCAGUAUUAAUUCAUGUCUAAAUCACUGGGGUUGAGACUCCUUCAGCCUCCCUGGUUGAUUAGAGAUUCUGAGAUGGAAUUCUCGGGUGCCAA,0.409
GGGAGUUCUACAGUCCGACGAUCAUAGGACCGUACUCCUGGACACCAUUUCCACAUGUGGAUUUCUGGUUGCACCAAGAUGACAAGCAAAUACUAGAGAAUCUUUCCACUUCGCCUCUGGCUGAGCCACCCCAUGGAAUUCUCGGGUGCCAA,0.727
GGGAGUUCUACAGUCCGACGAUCCACCAUGUGGCAGAGCUCCAGCCUCGAGUUGUCCCCCAGACUCAGGAGUCCCAGCCGGAUGGCCACCUCUGCAACCAUCAUCCUGUCUUCAGCUCAGCGGCAGCCCCGAAUGGAAUUCUCGGGUGCCAA,0.807
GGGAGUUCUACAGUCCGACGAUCGUUUUUGUUCUGUCUACCCUCUCAGGGAUAUGAGAUUCUCCCAGGCUUGUUUCCUGUCAGCCAUCUCUGUCUUUGGGUAUGAAACAUAAGGAUGGCUCCUCCGGUGUCGUUGGAAUUCUCGGGUGCCAA,0.358
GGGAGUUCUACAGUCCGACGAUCAAAGCCCUCCUGACAAGCCUUUUGCCUACAGGUUUACCUGAAAAUGAGCUACAUAUGGUCGUCAUUUUCUUCAAACUCUCAAAAUAGGAAAGUGGAAAUUUUUCUCCCCUUGGAAUUCUCGGGUGCCAA,0.33
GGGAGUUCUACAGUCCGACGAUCUUAAGCAGUAUAGUAUUGGUUGGGUCAUUUGCAUCAUAUCGUUAGCAUUUAUUUGGUGGCAGAAUGUUUGCCUAGGUACAGAAUUAAUAGCCCUUAGCAACGACUGCUGCUGGAAUUCUCGGGUGCCAA,4.95

# For quick reference, copied from above (sample 3):
Oligonucleotide,fluorescence intensity [a.u.]
GAAGCACCCGCACGTGACTACACCGGGTAACGATAGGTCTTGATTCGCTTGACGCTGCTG,18100
CTAAGCTTTTCTATTCATGTGATACATCGCCTTTTCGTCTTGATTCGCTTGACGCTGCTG,1070
GAAATTATACACTTTCACCTGTTGCTGAGTGTGTAGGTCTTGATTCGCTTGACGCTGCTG,549
GAATTATGAACGTTCAGGGTGACGTATTGTCATTAGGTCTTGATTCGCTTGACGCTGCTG,492
CTAAATCTTGTGGTTGTGGTGGTGCGTGTGAGCTTCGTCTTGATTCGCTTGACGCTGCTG,563
CTACGCCAGATTCATCTCCTGTTGGAGTGTTGATTCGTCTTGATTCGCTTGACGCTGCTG,493
GAACTCCAGAGTCACCACGACTGCGACTAGTATTAGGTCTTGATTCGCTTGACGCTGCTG,511
CTATCCTTAAGAGCACACGTTTTAATTAGCAACTTCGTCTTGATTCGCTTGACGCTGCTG,650
CTAAATTGTTAAGACATCGTGCGCCTAGCCTACTTCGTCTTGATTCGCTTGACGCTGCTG,524
CTATGCTAAACTGGTCACGCCGTTATAGACAGCTTCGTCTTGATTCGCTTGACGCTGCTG,1420
CTACATACATGCACGCACATACATGCACGCGCATTCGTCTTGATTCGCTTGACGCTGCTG,674
CTATAATACAAACCTCATGTGCATATATACATATTCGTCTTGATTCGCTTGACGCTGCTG,534
GAATCTATTCAGTCGCACGCGTTAACTCTTTGCTAGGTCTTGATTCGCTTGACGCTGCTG,573
CTACTTCTGGATTCTCACGGGATTATCTCGCGTTTCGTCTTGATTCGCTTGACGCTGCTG,656
